Measurements of several laboratories.
Protocols differ between the studies behind these lines. ± marks the error that the study gave.
Cell line: MCF7

Structure (SMILES) = C=CC(=O)c1cccnc1Nc1cc(NC(C)=O)ccc1OC; assay = firefly luciferase reporter; conditions = 100 µM, 6 h; scale = reference: vehicle; endpoint = TEAD reporter activity; result = 6.2 ± 1.2%
Structure (SMILES) = COc1ccc(-n2nc(C(C)=O)s/c2=N\N=C(/C)c2ccc(NC(=O)c3ccc(Cl)cc3)cc2)cc1; conditions = 2.5 µM; endpoint = viability; result = 6.47%
Structure (SMILES) = COc1ccc(COC[C@@](O)(CNCc2ccc(F)cc2)[C@@H]2CC[C@@H](C)C[C@H]2OCc2ccc(OC)cc2)cc1; assay = cell growth, inhibitor, MTT; conditions = 72 h; endpoint = IC50; result = 1.64 µM
Structure (SMILES) = CC[C@@]1(O)C(=O)OCc2c1cc1n(c2=O)Cc2cc3c(CN(C)C)c(O)ccc3nc2-1; assay = MTT; conditions = 0.1 µM, 96 h; endpoint = cell death; result = ~17%
Structure (SMILES) = CC(=NN=c1scc(-c2ccccc2)n1C)c1c(O)c2ccccc2oc1=O; assay = cell growth, MTT; scale = reference: IC50 BJ-1 over MCF7; endpoint = selectivity index; result = > 2.89
Structure (SMILES) = COC(=O)COc1c(Cc2cc(C(C)(C)CC(C)(C)C)cc(-n3nc4ccccc4n3)c2OCC(=O)OC)cc(C(C)(C)CC(C)(C)C)cc1-n1nc2ccccc2n1; assay = MTT; conditions = 100 µM, 24 h; endpoint = growth inhibition; result = 84.2 ± 1.78%
Structure (SMILES) = C=CC(=O)c1cccnc1Nc1cc(C)ccc1OC; assay = firefly luciferase reporter; conditions = 50 µM, 6 h; scale = reference: vehicle; endpoint = TEAD reporter activity; result = 70.8 ± 6.5%
Structure (SMILES) = CC/C(=C(\c1ccc(O)cc1)c1ccc(OCCNC)cc1)c1ccccc1; conditions = 5 µM, 5 days; scale = reference: vehicle; endpoint = cell growth; result = 33%
Structure (SMILES) = CCC(=O)N1CCC(COCC(=O)N2CCN(c3nc(-c4cnc(N)nc4C(F)F)nc(N4CCOC[C@@H]4C)n3)CC2)CC1; assay = resazurin growth rate inhibition; conditions = 72 h; endpoint = GR50; result = 180 nM
Structure (SMILES) = C=CC(=O)c1cccnc1Nc1cc(F)ccc1OC; assay = firefly luciferase reporter; conditions = 100 µM, 6 h; scale = reference: vehicle; endpoint = TEAD reporter activity; result = 4.1 ± 0.4%
Structure (SMILES) = O=[N+]([O-])c1ccc(O)c(C=NNc2ccc(Br)cc2)c1; assay = Muse cell cycle; conditions = IC50, 24 h; endpoint = cells in G0/G1 phase; result = 63.8%
Structure (SMILES) = CCOC(=O)c1nn(-c2cccc(Cl)c2)/c(=N/N=C(\C)c2ccc(NC(=O)c3ccc(Cl)cc3)cc2)s1; assay = MTT; conditions = 5 µM; endpoint = cytotoxicity; result = 96.3%
Structure (SMILES) = O=[N+]([O-])c1cc(I)c(O)c(C=NNc2ccccc2)c1; assay = annexin V; conditions = IC50, 24 h; endpoint = early apoptotic cells; result = 41%
Structure (SMILES) = O=c1ccn(Cc2cn(-c3c4ccccc4nc4ccccc34)nn2)c(=O)[nH]1; assay = NCI60 single-dose screen; conditions = 10 µM; endpoint = growth percentage; result = 36.4%
Structure (SMILES) = CC/C(=C(\c1ccccc1)c1ccc(OCCN(C)C)cc1)c1ccccc1; assay = RNA-seq, refers to: SGK3 mRNA; conditions = 1 µM, 24 h, E2-induced gene; scale = reference: DMSO vehicle; endpoint = log2 fold change; result = -1.56
Structure (SMILES) = COc1cccc2c1C(=O)c1c(O)c3c(c(O)c1C2=O)C[C@@](O)(C(=O)CO)C[C@@H]3O[C@H]1C[C@H](N)[C@H](O)[C@H](C)O1; scale = reference: BJ1 IC50 over MCF7 IC50; endpoint = selectivity index; result = 0.6
Structure (SMILES) = COc1ccc(-n2nc(C(C)=O)s/c2=N\N=C(/C)c2ccc(NC(=O)c3ccccc3)cc2)cc1; conditions = 2.5 µM; endpoint = toxicity; result = 97.5%
Structure (SMILES) = O=C(O)c1cccnc1Nc1cccc(C(F)(F)F)c1; assay = firefly luciferase reporter; conditions = 50 µM, 6 h; scale = reference: vehicle; endpoint = TEAD reporter activity; result = 144 ± 3.2%
Structure (SMILES) = C=C1CN(S(=O)(=O)c2ccc(C)cc2)CCc2cc(-c3ccccc3)cc(n2)CCN(S(=O)(=O)c2ccc(C)cc2)C1.Cl; conditions = 4 µM, 48 h, together with: progranulin 1 µg/mL; endpoint = mammosphere formation; result = decreased
Structure (SMILES) = CC(=O)c1nn(-c2ccc(C)cc2)/c(=N/N=C(\C)c2ccc(NC(=O)c3ccccc3)cc2)s1; assay = MTT; conditions = 0.156 µM; endpoint = cytotoxicity; result = 90.9%
Structure (SMILES) = CC(=O)c1nn(-c2ccc(Cl)cc2)/c(=N/N=C(\C)c2ccc(NC(=O)c3ccc(Cl)cc3)cc2)s1; conditions = 10 µM; endpoint = toxicity; result = 77.5%
Structure (SMILES) = O=C1NC(c2ccccc2)(c2ccccc2)C(=O)N1Cc1cn(-c2cc3ccccc3oc2=O)nn1; assay = NCI60 single-dose screen; conditions = 10 µM; endpoint = growth percentage; result = 91.4%
Structure (SMILES) = CC(=O)c1nn(-c2ccc(Cl)cc2)/c(=N/N=C(\C)c2ccc(NC(=O)c3ccccc3)cc2)s1; conditions = 2.5 µM; endpoint = viability; result = 4.48%
Structure (SMILES) = CNC(=S)NN=C(C)c1c(O)c2ccccc2oc1=O; assay = cell growth, MTT; scale = reference: IC50 BJ-1 over MCF7; endpoint = selectivity index; result = > 7.35
Structure (SMILES) = CC(C)(C)OC(=O)N1CCC(Oc2ccc(Cl)cc2C(=O)N[C@@H](Cc2ccccc2)C(=O)Nc2cc(C(F)(F)F)cc(C(F)(F)F)c2)CC1; conditions = up to 10 µM, 72 h; endpoint = antiproliferative activity; result = inactive
Structure (SMILES) = CC(=O)c1nn(-c2ccccc2Cl)/c(=N/N=C(\C)c2ccc(NC(=O)c3ccccc3)cc2)s1; assay = MTT; conditions = 0.312 µM; endpoint = cytotoxicity; result = 92.5%
Structure (SMILES) = C=CC(=O)N1CCC(COCC(=O)N2CCN(c3nc(-c4cnc(N)nc4C(F)F)nc(N4CCOC[C@@H]4C)n3)CC2)CC1; assay = resazurin growth rate inhibition; conditions = 72 h; endpoint = GR50; result = 5.9 nM
Structure (SMILES) = CCOC(=O)CSc1nc(-c2ccc(Cl)cc2)c2c(NC(=O)c3ccccc3)nnc-2[nH]1; assay = SRB; conditions = 10 µM, NCI60 single-dose screen; scale = reference: untreated; endpoint = cell growth; result = 92.6%
Structure (SMILES) = C=CC(=O)c1cccnc1Nc1cc(C(F)(F)F)ccc1C; assay = firefly luciferase reporter; conditions = 100 µM, 6 h; scale = reference: vehicle; endpoint = TEAD reporter activity; result = 8.7 ± 0.2%
Structure (SMILES) = CCCCN1CCN(c2ccc3[nH]c(-c4ccc5[nH]c(-c6ccc(OCC)cc6)nc5c4)nc3c2)CC1; assay = SRB; conditions = 10 µM, 48 h; endpoint = growth percent; result = 1.77%
Structure (SMILES) = CCOC(=O)c1sc(=NN=C(C)c2c(O)c3ccccc3oc2=O)n(C)c1C; assay = cell growth, MTT; scale = reference: IC50 BJ-1 over MCF7; endpoint = selectivity index; result = > 8.93
Structure (SMILES) = CN1CCN(c2ccc3[nH]c(-c4ccc5[nH]c(-c6ccc(C(F)(F)F)cc6)nc5c4)nc3c2)CC1; assay = SRB; conditions = 10 µM, 48 h; endpoint = growth percent; result = 4.4%
Structure (SMILES) = CCOC(=O)c1nn(-c2cccc(Cl)c2)/c(=N/N=C(\C)c2ccc(NC(=O)c3ccccc3)cc2)s1; assay = MTT; conditions = 0.078 µM; endpoint = cytotoxicity; result = 12.3%
Structure (SMILES) = C[C@@H]1CC[C@@H]([C@](C)(O)Cn2cnc3ccccc32)[C@H](OCc2ccccc2)C1; assay = cell growth, inhibitor, MTT; conditions = 72 h; endpoint = IC50; result = 7.02 µM
Structure (SMILES) = CC(=O)Nc1ccc(/C(C)=N/N=c2\sc(C(C)=O)nn2-c2ccc(C)cc2)cc1; assay = MTT; conditions = 0.625 µM; endpoint = cytotoxicity; result = 13.6%
Structure (SMILES) = COc1ccc(C(F)(F)F)cc1Nc1ncccc1C(=O)O; assay = firefly luciferase reporter; conditions = 100 µM, 6 h; scale = reference: vehicle; endpoint = TEAD reporter activity; result = 80.5 ± 6.5%
Structure (SMILES) = CCOC(=O)c1sc(=NN=C(C)c2c(O)c3ccccc3oc2=O)[nH]c1C; assay = cell growth, MTT; scale = reference: IC50 BJ-1 over MCF7; endpoint = selectivity index; result = > 15.6
Structure (SMILES) = CCCCCCCC(=O)Nc1ncc(Cc2cccc(OCc3cn(CCOC)nn3)c2)s1; assay = cell viability, MTS; conditions = 10 µM; endpoint = inhibition; result = 11 ± 5%
Structure (SMILES) = C=CC(=O)c1cccnc1Nc1cc(NC(=O)CCCCCC)ccc1OC; assay = firefly luciferase reporter; conditions = 100 µM, 6 h; scale = reference: vehicle; endpoint = TEAD reporter activity; result = 11.1 ± 1.6%
Structure (SMILES) = C[C@H](Nc1ccc2c(c1)OCCn1cc(N3C(=O)OC[C@H]3C(F)F)nc1-2)C(N)=O; assay = cell growth, CellTiter-Glo; conditions = 120 h; endpoint = Hill coefficient GR curve; result = 1
Structure (SMILES) = C=CC(=O)c1cccnc1Nc1cc(NC(=O)c2ccccc2)ccc1OC; assay = firefly luciferase reporter; conditions = 100 µM, 6 h; scale = reference: vehicle; endpoint = TEAD reporter activity; result = 23.9 ± 6.3%
Structure (SMILES) = COc1cccc2c1C(=O)c1c(O)c3c(c(O)c1C2=O)C[C@@](O)(C(=O)CO)C[C@@H]3O[C@H]1C[C@H](N)[C@H](O)[C@H](C)O1; assay = annexin V/PI; conditions = concentration not given, 72 h, at IC50; endpoint = necrotic cells; result = 2.46%
Structure (SMILES) = C#C[C@@]1(O)[C@@H](CO)O[C@@H](n2ccc3c(N)ncnc32)[C@@H]1O; assay = SRB; conditions = NCI-60 screen; endpoint = TGI; result = 5.66 µM
Structure (SMILES) = NNc1nc(-c2ccc(Cl)cc2)c2c(NC(=O)c3ccccc3)nnc-2[nH]1; assay = SRB; conditions = 10 µM, NCI60 single-dose screen; scale = reference: untreated; endpoint = cell growth; result = 96.8%
Structure (SMILES) = OCc1ccc(Nc2ccc3c(Nc4cccc(C(F)(F)F)c4)ncnc3c2)cc1; conditions = IC50, 24 h; endpoint = G0/G1 phase cells; result = 5%

Repeated from above:
Structure (SMILES) = COc1ccc(C(F)(F)F)cc1Nc1ncccc1C(=O)O; assay = firefly luciferase reporter; conditions = 100 µM, 6 h; scale = reference: vehicle; endpoint = TEAD reporter activity; result = 80.5 ± 6.5%
Structure (SMILES) = CN1CCN(c2ccc3[nH]c(-c4ccc5[nH]c(-c6ccc(C(F)(F)F)cc6)nc5c4)nc3c2)CC1; assay = SRB; conditions = 10 µM, 48 h; endpoint = growth percent; result = 4.4%
Structure (SMILES) = O=[N+]([O-])c1ccc(O)c(C=NNc2ccc(Br)cc2)c1; assay = Muse cell cycle; conditions = IC50, 24 h; endpoint = cells in G0/G1 phase; result = 63.8%
Structure (SMILES) = C=CC(=O)c1cccnc1Nc1cc(NC(=O)c2ccccc2)ccc1OC; assay = firefly luciferase reporter; conditions = 100 µM, 6 h; scale = reference: vehicle; endpoint = TEAD reporter activity; result = 23.9 ± 6.3%
Structure (SMILES) = CC(=O)c1nn(-c2ccc(Cl)cc2)/c(=N/N=C(\C)c2ccc(NC(=O)c3ccc(Cl)cc3)cc2)s1; conditions = 10 µM; endpoint = toxicity; result = 77.5%
